Assay results collected from several papers.
Parts stem from different laboratories: compare values within a part only. Substitutions count along the parent as printed.

Study 1
Target: Histone acetyltransferase KAT6A, both winged helices, GST fusion (KAT6A, Homo sapiens, UniProt Q92794, residues 1-181)
Technique: protein binding microarray
Molecule type: double-stranded DNA, one strand shown
Medium: in vitro
Tested at: not given
Notes: 8-mer, flanks averaged, mean of 2 arrays, mostly near background
Baseline: not given
Direction: higher = stronger binding
Residues (chain): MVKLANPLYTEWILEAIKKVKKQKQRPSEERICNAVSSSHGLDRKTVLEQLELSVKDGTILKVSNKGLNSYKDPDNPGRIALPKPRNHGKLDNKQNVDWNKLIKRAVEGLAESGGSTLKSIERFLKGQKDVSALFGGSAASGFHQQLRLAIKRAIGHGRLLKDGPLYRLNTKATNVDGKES
`AACAAGTG` has an E-score of -0.0656.
For `GCGCGCCC`, the E-score was 0.352.
For `ATCTTAAC`, the E-score was 0.019.
For `GCCGCCAC`, the E-score was 0.269.
The E-score of `CGGTGCTA` is reported as 0.13.
`GGACCTGA` has an E-score of -0.00491.
`CTTTAATA` gave an E-score of 0.00201.
`CTGTTGAC` has an E-score of -0.162.
For `CAATCTAG`, the E-score was -0.0172.
For `CCTTCGCG`, the E-score was 0.171.
`AAATCTAG` has an E-score of -0.111.
With `ATAAGCGG` the E-score was 0.0903.
The E-score of `ACTGTGCA` is reported as -0.0664.
The E-score of `ATATATAC` is reported as 0.0631.
`AAATGCGG` gave an E-score of 0.0991.
For `AGTGGACC`, the E-score was -0.0471.

Study 2
Target: CCNA2, cyclin fold, Cln2 fusion (human)
Technique: yeast growth competition, sequencing
Medium: yeast
Notes: weak parent motif
Baseline: not given
Direction: higher = stronger binding
Starting sequence: SLBP docking peptide (human); ARYKRKLLINDFG
`K6G` — result for “normalised enrichment score”: 1.05.
`I9L` — result for “normalised enrichment score”: 1.54.
`G13H`: “normalised enrichment score” 1.07.
For `L7N`, “normalised enrichment score” read 1.55.
Under “normalised enrichment score”, `R2G` is recorded as 1.61.
Under “normalised enrichment score”, `R5Y` is recorded as 0.0237.
For `I9K`, “normalised enrichment score” read 2.11.
`N10L` — result for “normalised enrichment score”: 2.09.
`L7K`: “normalised enrichment score” 0.491.
`K6H` — result for “normalised enrichment score”: 0.015.
For `I9M`, “normalised enrichment score” read 1.03.
`R5Q` — result for “normalised enrichment score”: 0.109.
`R5W` — result for “normalised enrichment score”: 0.719.
`D11E`: “normalised enrichment score” 1.79.
Under “normalised enrichment score”, `L8Q` is recorded as 1.17.
`N10P` — result for “normalised enrichment score”: 1.31.
`K6N` — result for “normalised enrichment score”: 2.76.

Study 3
Target: ABI1, truncated, D143A, DHFR fusion (Arabidopsis thaliana)
Technique: DHFR PCA, deep sequencing
Medium: yeast
Notes: methotrexate growth selection, single substitutions
With: (+)-ABA 0 µM
Baseline: wild-type fitted maximum
Direction: higher = stronger binding
Starting sequence: PYL1, truncated, DHFR fusion (Arabidopsis thaliana); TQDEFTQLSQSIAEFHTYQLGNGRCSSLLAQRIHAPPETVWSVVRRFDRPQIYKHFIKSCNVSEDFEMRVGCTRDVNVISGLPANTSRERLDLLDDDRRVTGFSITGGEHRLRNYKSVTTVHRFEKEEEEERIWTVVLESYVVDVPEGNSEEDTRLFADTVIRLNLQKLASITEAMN
For `Q10N`, “relative binding score” read 25.4%.
Under “relative binding score”, `R163W` is recorded as 0.065%.
`F66H`: “relative binding score” 2.33%.
For `T160P`, “relative binding score” read -0.113%.
Under “relative binding score”, `G102R` is recorded as -0.783%.
`L166H`: “relative binding score” 5.48%.
For `R123V`, “relative binding score” read -2.39%.
For `Q51G`, “relative binding score” read 1.17%.
Under “relative binding score”, `R155E` is recorded as -5.29%.
`H34S` — result for “relative binding score”: 18.9%.
`D48H`: “relative binding score” -2.06%.
`S26V`: “relative binding score” 2.48%.
`R90K` — result for “relative binding score”: 8.37%.
Under “relative binding score”, `E147H` is recorded as 13.1%.
`G107E`: “relative binding score” 21.5%.
For `T101R`, “relative binding score” read -6.34%.
`S59K`: “relative binding score” 28%.

Study 4
Target: Sal-like protein 4, full length isoform A (SALL4, Homo sapiens, UniProt Q9UJQ4, residues 1-1053)
UniProt Q9UJQ4, sequence (whole entry, looked up): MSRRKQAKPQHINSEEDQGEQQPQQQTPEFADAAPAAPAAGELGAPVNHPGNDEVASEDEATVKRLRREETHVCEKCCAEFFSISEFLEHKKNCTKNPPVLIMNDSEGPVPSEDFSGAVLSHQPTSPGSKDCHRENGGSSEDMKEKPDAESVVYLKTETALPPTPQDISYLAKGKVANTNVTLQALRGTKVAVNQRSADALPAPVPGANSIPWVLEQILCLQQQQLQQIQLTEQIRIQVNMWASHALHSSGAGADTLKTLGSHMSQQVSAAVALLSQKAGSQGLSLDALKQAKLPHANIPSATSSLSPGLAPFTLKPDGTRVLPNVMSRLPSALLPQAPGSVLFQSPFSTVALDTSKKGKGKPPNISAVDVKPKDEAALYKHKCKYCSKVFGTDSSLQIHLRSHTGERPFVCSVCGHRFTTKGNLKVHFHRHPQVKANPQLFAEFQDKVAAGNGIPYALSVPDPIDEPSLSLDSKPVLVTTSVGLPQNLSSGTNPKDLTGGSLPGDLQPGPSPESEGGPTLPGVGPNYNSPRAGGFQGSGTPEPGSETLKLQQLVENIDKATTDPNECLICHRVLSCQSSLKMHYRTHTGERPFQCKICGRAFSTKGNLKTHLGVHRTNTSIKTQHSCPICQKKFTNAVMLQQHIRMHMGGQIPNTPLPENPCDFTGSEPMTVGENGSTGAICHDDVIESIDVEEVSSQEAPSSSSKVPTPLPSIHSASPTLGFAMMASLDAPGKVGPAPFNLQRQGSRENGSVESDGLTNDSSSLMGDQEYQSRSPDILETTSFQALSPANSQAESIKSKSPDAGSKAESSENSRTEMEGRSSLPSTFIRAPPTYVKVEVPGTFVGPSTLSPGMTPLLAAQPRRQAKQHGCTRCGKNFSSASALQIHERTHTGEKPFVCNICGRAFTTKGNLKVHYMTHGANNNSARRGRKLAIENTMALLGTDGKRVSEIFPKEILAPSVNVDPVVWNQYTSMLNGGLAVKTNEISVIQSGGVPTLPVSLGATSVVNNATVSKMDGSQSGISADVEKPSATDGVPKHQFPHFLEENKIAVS
Technique: universal PBM
Molecule type: double-stranded DNA, one strand shown
Medium: in vitro
Tested at: 600 nM
Notes: 8-mer, flanks averaged, mean of replicates
Direction: higher = stronger binding
The E-score of `GAGCAATC` is reported as -0.118.
For `CCGGACCC`, the E-score was -0.375.
The E-score of `AGCGGTAC` is reported as -0.159.
For `TAGGACGA`, the E-score was -0.0291.
`CCGGTGTC` has an E-score of -0.332.
`CTTATGCA` has an E-score of 0.231.
`CATGTTAA` has an E-score of 0.253.
For `ATTTCTAC`, the E-score was 0.23.
`GGCTCCCA` gave an E-score of -0.339.
The E-score of `GCCAACAC` is reported as -0.0469.
With `TCATCCGA` the E-score was 0.115.
`CGCCCCTA` has an E-score of -0.202.
`AGAGGAAA` gave an E-score of 0.0975.
`ATCAATCG` gave an E-score of 0.0778.
`AGCTCTCA` has an E-score of -0.153.
`CGTCAAAC` has an E-score of -0.0202.
With `AGAGCAAA` the E-score was 0.122.
For `AATCATAA`, the E-score was 0.451.
With `CCGCAATA` the E-score was 0.0746.
The E-score of `GAAGCGAA` is reported as -0.0279.
`AGAGGGCC` has an E-score of -0.235.
With `ATTGTGCA` the E-score was 0.0931.
`GCGGATAA` gave an E-score of -0.0488.
The E-score of `ATATTGAT` is reported as 0.396.
For `CAATATGG`, the E-score was 0.187.

Study 5
Target: Interferon regulatory factor 7, full length, phosphomimetic (IRF7, Homo sapiens, UniProt Q92985, residues 1-503, S471D/S472D/S475D/S476D/S477D/S483D/S484D/S487D)
Technique: protein-binding microarray
Molecule type: double-stranded DNA, one strand shown
Medium: in vitro
Tested at: 2200 nM top
Notes: 60-bp whole probe
With: salmon DNA 0.4 mg/ml
Baseline: random background probes
Direction: higher = stronger binding
All sequences stand within: GCCTAGCAC … GTCTTGATTCGCTTGACGCTGCTG
Construct (chain): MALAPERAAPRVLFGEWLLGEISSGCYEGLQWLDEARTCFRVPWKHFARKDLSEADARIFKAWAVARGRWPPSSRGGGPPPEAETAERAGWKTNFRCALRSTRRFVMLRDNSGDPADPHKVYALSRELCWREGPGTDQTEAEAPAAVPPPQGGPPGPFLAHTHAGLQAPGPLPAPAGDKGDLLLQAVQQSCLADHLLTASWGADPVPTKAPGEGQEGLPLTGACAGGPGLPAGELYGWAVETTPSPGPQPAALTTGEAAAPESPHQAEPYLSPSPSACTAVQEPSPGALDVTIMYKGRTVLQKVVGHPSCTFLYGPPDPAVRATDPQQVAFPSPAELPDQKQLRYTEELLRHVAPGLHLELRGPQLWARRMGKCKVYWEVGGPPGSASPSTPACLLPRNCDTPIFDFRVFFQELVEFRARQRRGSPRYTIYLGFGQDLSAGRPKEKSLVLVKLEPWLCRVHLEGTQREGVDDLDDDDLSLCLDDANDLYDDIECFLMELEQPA
`TTAGGACTGGGCTTTCGGTTAGTGCTA`: “fitted relative affinity” 2.35 z-score.
`TTAGGTCTCTTTCTCCTTTAGTGCTAG` — result for “fitted relative affinity”: 1.44 z-score.
For `GACGATTTCAGTATCGTGACGTGCTAG`, “fitted relative affinity” read 0.816 z-score.
`ATGTCTTCCCCTCTCATTCCGTGCTAG`: “fitted relative affinity” 2.26 z-score.
For `GACGGTATCGACTATCGGTACGTGCTA`, “fitted relative affinity” read 0.27 z-score.
`GACGGACTGGGTCCCGGGACGTGCTAG`: “fitted relative affinity” -0.911 z-score.
`CTAGTTTTCATTTTCTGAATGTGCTAG`: “fitted relative affinity” 7.09 z-score.
`TTAGGTATCGGGACTGGGTCAGTGCTA`: “fitted relative affinity” -0.522 z-score.
`GACGGACTGGACTATCGGGCCGTGCTA` — result for “fitted relative affinity”: -0.867 z-score.
`GACGAACTGGAGACTGGAGACGTGCTA`: “fitted relative affinity” -0.274 z-score.
Under “fitted relative affinity”, `TTAGATTTCAGTATCGATTAGTGCTAG` is recorded as 0.797 z-score.
`GACGGTTTCCTTCGCCTGACGTGCTAG`: “fitted relative affinity” 1.95 z-score.
Under “fitted relative affinity”, `TCATGTCTGGGATTTTGACTGTGCTAG` is recorded as 0.364 z-score.
Under “fitted relative affinity”, `TTAGGTCTAGGACTGGGTTAGTGCTAG` is recorded as -0.548 z-score.
`GACGAACTGGGGACTAGAGACGTGCTA`: “fitted relative affinity” -0.218 z-score.
`GACGGTTTCGACTATCGGGGCGTGCTA`: “fitted relative affinity” 3.57 z-score.
`TCAAATGTCCTCCTCTCACTGTGCTAG`: “fitted relative affinity” 1.47 z-score.
For `GACGAACTGGTGACTGGAGACGTGCTA`, “fitted relative affinity” read -0.339 z-score.
For `GACGGTATCGTTCTCCTGACGTGCTAG`, “fitted relative affinity” read 1.15 z-score.
For `ATAGGACTGGACTTTCGGTTAGTGCTA`, “fitted relative affinity” read 5.5 z-score.
`CTCTTTCTTTGCTTCACCCTGTGCTAG` — result for “fitted relative affinity”: 2.81 z-score.
Under “fitted relative affinity”, `GACGGACTGCTTCTCCTGATGTGCTAG` is recorded as 0.331 z-score.
Under “fitted relative affinity”, `TTCGGTCTCCTTATCCTTTAGTGCTAG` is recorded as 2.2 z-score.
For `TTTGGTTTCGGACTGGGTTAGTGCTAG`, “fitted relative affinity” read 4.97 z-score.
Under “fitted relative affinity”, `TTAAAACTGGGGTTTCGATTAGTGCTA` is recorded as 2.55 z-score.

Study 6
Target: ATF3, bZIP domain (human)
Technique: DHFR protein complementation
Medium: yeast
Notes: single substitutions, most at no-binding floor
Baseline: wild-type JUN-FOS pair
Direction: higher = stronger binding
Starting sequence: JUN, bZIP domain (human); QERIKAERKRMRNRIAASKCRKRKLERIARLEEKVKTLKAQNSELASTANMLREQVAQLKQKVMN; partner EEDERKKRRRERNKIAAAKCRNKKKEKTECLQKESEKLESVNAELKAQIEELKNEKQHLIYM
`N42M` has a binding fitness of -0.595 natural log.
With `L52Y` the binding fitness was -0.482 natural log.
`I28G` gave a binding fitness of -0.117 natural log.
`I28V` gave a binding fitness of -0.173 natural log.
For `V35Q`, the binding fitness was -1.07 natural log.
For `A40N`, the binding fitness was -0.239 natural log.
With `E32Q` the binding fitness was -0.287 natural log.
With `L45T` the binding fitness was -1.01 natural log.
The binding fitness of `T37A` is reported as -0.0134 natural log.
`L45C` gave a binding fitness of -1.26 natural log.
The binding fitness of `A46Y` is reported as -0.253 natural log.
The binding fitness of `L52V` is reported as -0.797 natural log.
`R30Q` gave a binding fitness of 0.00973 natural log.
For `L52C`, the binding fitness was -1.33 natural log.
With `S47C` the binding fitness was -0.108 natural log.
With `V35G` the binding fitness was -1.22 natural log.
For `A57M`, the binding fitness was -0.224 natural log.
For `M51W`, the binding fitness was -0.324 natural log.
With `R30G` the binding fitness was -0.0586 natural log.
`K34N` gave a binding fitness of -0.288 natural log.
`V35K` gave a binding fitness of -0.87 natural log.
With `T37P` the binding fitness was -1.08 natural log.
With `N42D` the binding fitness was -1.38 natural log.
For `R53H`, the binding fitness was -0.416 natural log.
With `Q55K` the binding fitness was -0.405 natural log.

Some of these lines once more (study 6):
The binding fitness of `T37A` is reported as -0.0134 natural log.
`L45C` gave a binding fitness of -1.26 natural log.
The binding fitness of `A46Y` is reported as -0.253 natural log.
The binding fitness of `L52V` is reported as -0.797 natural log.
`R30Q` gave a binding fitness of 0.00973 natural log.
For `L52C`, the binding fitness was -1.33 natural log.
With `S47C` the binding fitness was -0.108 natural log.
With `V35G` the binding fitness was -1.22 natural log.
For `A57M`, the binding fitness was -0.224 natural log.
For `M51W`, the binding fitness was -0.324 natural log.
With `R30G` the binding fitness was -0.0586 natural log.
`K34N` gave a binding fitness of -0.288 natural log.
`V35K` gave a binding fitness of -0.87 natural log.
With `T37P` the binding fitness was -1.08 natural log.
With `N42D` the binding fitness was -1.38 natural log.
For `R53H`, the binding fitness was -0.416 natural log.
